Measurements of several laboratories.
Numbered parts are unrelated; each lists some results of a single study. Positions count from the first letter of the parent shown.
UniProt O94806, sequence (whole entry, looked up): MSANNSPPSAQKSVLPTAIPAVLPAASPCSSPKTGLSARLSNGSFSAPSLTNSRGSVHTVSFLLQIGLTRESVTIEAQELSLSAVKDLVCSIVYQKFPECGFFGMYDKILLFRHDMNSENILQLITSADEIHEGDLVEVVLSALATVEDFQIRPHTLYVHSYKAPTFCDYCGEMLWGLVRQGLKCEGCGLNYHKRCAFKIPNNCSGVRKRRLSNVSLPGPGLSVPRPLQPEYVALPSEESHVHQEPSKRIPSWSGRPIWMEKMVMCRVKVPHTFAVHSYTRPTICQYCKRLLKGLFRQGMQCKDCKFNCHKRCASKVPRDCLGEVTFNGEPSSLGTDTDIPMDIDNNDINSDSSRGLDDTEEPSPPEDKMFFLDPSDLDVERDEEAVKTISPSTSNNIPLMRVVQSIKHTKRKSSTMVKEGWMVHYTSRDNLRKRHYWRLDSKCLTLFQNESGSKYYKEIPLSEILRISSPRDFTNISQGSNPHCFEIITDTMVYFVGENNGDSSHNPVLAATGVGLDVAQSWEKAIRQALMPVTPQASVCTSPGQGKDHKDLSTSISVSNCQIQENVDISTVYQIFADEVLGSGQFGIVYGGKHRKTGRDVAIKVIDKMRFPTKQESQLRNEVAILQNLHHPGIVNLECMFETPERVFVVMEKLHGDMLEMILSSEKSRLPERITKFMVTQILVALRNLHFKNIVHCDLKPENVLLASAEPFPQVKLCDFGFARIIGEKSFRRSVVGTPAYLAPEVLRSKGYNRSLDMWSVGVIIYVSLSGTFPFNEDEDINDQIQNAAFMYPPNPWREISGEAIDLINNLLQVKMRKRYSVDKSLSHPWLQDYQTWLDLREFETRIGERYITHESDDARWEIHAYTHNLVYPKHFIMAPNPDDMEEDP
UniProt Q99759, sequence (whole entry, looked up): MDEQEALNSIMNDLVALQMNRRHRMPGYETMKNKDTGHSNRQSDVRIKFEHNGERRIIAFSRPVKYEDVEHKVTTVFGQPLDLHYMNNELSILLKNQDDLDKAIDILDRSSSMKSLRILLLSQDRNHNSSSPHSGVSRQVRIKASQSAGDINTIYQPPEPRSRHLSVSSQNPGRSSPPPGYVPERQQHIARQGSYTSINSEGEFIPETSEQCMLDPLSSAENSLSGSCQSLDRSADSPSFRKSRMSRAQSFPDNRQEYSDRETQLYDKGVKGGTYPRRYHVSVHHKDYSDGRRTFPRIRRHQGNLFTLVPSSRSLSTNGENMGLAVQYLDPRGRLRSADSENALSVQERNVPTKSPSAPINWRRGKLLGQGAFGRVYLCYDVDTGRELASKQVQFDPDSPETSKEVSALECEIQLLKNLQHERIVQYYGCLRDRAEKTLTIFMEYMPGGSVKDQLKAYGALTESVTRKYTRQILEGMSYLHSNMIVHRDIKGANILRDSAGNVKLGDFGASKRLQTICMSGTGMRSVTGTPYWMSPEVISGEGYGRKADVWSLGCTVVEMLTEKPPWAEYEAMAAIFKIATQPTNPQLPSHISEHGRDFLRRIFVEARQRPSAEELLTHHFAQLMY
UniProt P36896, sequence (whole entry, looked up): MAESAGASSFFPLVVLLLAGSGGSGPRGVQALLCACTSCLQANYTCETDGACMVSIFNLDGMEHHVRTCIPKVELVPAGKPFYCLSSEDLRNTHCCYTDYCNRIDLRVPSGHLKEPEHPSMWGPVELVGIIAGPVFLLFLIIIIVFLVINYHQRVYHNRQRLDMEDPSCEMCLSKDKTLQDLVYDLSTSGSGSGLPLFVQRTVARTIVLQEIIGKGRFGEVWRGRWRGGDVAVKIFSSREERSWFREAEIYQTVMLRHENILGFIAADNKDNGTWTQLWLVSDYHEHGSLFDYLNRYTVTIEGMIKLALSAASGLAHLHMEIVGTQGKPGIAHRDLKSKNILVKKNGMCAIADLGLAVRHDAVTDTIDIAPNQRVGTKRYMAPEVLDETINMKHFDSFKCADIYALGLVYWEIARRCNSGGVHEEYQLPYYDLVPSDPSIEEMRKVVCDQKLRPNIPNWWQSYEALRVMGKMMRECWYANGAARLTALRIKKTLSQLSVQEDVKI
UniProt P19784, sequence (whole entry, looked up): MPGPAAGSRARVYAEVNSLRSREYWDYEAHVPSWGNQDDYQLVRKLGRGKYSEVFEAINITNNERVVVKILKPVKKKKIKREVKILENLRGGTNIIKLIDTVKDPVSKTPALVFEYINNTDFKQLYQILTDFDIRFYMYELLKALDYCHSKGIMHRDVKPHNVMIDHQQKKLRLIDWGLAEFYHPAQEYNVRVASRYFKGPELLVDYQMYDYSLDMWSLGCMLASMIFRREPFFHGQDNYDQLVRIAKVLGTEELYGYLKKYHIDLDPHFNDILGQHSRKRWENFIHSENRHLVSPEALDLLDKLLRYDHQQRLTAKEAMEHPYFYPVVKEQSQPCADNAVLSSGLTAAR

Sample 1
Target: BATF3, bZIP domain (human)
Method: DHFR protein complementation
Sample: yeast
Setting: single substitutions, most at no-binding floor
Baseline: wild-type JUN-FOS pair
Reading: higher = stronger binding
Starting sequence: JUN, bZIP domain (human); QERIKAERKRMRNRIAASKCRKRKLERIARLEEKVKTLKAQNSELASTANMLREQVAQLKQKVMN; partner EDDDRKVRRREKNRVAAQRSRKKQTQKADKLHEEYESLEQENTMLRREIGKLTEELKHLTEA
Variant | binding fitness [natural log]
S47C | 0.212
Q41A | 0.177
E44I | 0.111
E33P | -0.18
I28F | 0.144
T48P | -1.01
L45N | -0.447
S43C | 0.229

Sample 2
Compound: Nc1cnc(N2CCc3cc(S(=O)(=O)Nc4c(F)cc(Cl)cc4F)cc(N4CCCC4=O)c32)nc1
Effect on: cell-free assay
Method: competition with immobilised ligand
Tested at: 1 µM
target | remaining binding
Casein kinase II subunit alpha' (CSNK2A2, Homo sapiens, UniProt P19784) | 98%
Activin receptor type-1B (ACVR1B, Homo sapiens, UniProt P36896) | 96%
Serine/threonine-protein kinase D3 (PRKD3, Homo sapiens, UniProt O94806) | 88%
Mitogen-activated protein kinase kinase kinase 3 (MAP3K3, Homo sapiens, UniProt Q99759) | 97%

Mixed results
Rela Rel homology region: Transcription factor p65, Rel homology region (Rela, Mus musculus, UniProt Q04207, residues 1-314)
UniProt Q04207, sequence (1-314, looked up): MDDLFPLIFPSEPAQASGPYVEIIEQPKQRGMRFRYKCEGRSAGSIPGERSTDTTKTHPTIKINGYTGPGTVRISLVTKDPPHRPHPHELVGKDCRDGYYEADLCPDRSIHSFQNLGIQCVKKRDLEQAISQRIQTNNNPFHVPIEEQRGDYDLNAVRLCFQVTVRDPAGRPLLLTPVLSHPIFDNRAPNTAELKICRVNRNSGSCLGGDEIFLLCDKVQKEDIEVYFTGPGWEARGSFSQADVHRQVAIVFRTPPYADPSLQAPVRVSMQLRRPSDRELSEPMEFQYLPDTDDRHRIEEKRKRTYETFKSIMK
Molecule | target or system | assay | test system | setting | how to read | measurement | result
GGGGGTTTTT | Rela Rel homology region | surface plasmon resonance | double-stranded DNA, one strand shown, in vitro | 1 nM to 1 µM, 10-bp κB site, 1:1 kinetic fit, 10 °C | higher = slower dissociation | dissociation half-life | 7 s
CC(C)[C@H](CO)Nc1nc(Nc2cc(N)cc(Cl)c2)c2ncn(C(C)C)c2n1 | panel of 300 human kinases | – | – | 0.5 µM | higher = more selective | Gini score | 0.62
AGGAATTCCA | Rela Rel homology region | surface plasmon resonance | double-stranded DNA, one strand shown, in vitro | 1 nM to 1 µM, 10-bp κB site, 1:1 kinetic fit, 10 °C | higher = slower dissociation | dissociation half-life | 1 s
CCC[C@H]1NC(=O)CSC[C@@H](C(=O)OCC)N(C)C(=O)[C@H](CC(C)C)NC(=O)[C@H](C)N(C)C(=O)[C@H](CC(C)C)NC(=O)[C@H](C)N(C)C(=O)[C@@H]2CCCN2C(=O)[C@H](CC(C)C)NC(=O)CN(CCC)C1=O | – | – | hydrocarbon/water | – | – | logD | 0.757
CO[C@H]1C[C@@H]2CC[C@@H](C)[C@@](O)(O2)C(=O)C(=O)N2CCCC[C@H]2C(=O)O[C@H]([C@H](C)C[C@@H]2CC[C@@H](O)[C@H](OC)C2)CC(=O)[C@H](C)/C=C(\C)[C@@H](O)[C@@H](OC)C(=O)[C@H](C)C[C@H](C)/C=C/C=C/C=C/1C | panel of 300 human kinases | – | – | 0.5 µM | higher = more selective | Gini score | 0.72

Repeated from above (sample 2):
target | remaining binding
Serine/threonine-protein kinase D3 (PRKD3, Homo sapiens, UniProt O94806) | 88%
Mitogen-activated protein kinase kinase kinase 3 (MAP3K3, Homo sapiens, UniProt Q99759) | 97%
